Assay results from different studies.
Numbered parts are unrelated; each lists some results of a single study. Values joined by “and” are separate records of one study, mostly repeats; a detail may differ.
UniProt Q9UM73, sequence (whole entry, looked up): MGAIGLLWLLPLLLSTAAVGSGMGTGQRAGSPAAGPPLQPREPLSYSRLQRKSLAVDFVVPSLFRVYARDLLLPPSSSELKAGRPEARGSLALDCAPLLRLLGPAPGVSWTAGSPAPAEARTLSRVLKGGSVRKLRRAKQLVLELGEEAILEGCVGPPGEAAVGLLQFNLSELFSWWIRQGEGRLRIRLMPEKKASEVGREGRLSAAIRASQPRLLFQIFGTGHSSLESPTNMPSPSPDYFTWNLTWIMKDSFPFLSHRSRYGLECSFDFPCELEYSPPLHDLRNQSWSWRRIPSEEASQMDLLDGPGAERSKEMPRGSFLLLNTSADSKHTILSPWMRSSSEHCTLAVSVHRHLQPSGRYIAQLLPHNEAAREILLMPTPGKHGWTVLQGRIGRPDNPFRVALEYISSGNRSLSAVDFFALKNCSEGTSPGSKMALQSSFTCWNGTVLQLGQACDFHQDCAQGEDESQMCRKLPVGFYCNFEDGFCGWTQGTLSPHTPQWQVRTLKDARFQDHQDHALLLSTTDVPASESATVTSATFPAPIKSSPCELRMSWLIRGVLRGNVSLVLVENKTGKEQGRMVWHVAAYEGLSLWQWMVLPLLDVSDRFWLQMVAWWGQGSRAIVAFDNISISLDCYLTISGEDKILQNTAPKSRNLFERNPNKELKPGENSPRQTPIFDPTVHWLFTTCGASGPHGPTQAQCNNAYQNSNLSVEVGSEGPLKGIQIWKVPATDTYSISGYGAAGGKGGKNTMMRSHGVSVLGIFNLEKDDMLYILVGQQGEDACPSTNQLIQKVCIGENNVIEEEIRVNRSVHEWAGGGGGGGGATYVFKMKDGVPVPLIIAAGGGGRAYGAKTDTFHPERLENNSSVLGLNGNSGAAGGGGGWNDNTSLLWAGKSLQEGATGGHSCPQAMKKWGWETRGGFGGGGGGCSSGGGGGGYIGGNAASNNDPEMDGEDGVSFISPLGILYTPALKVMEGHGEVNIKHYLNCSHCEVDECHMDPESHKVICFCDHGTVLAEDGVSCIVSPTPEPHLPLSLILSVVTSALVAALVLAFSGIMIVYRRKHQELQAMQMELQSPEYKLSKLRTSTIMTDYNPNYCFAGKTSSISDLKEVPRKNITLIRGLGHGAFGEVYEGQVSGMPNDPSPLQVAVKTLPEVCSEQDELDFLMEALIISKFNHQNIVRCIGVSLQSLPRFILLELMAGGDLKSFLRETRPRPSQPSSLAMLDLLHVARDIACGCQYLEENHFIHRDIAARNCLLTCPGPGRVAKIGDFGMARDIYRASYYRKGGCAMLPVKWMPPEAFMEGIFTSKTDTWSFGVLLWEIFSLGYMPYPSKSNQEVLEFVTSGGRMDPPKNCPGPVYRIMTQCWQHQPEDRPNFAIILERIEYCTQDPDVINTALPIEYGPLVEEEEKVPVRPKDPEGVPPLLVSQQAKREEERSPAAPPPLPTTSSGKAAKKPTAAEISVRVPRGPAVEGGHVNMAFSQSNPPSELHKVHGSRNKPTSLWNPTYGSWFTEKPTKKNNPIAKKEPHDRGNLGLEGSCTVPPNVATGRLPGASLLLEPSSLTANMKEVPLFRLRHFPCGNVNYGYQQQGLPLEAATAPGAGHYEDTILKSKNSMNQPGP
UniProt O75914, sequence (whole entry, looked up): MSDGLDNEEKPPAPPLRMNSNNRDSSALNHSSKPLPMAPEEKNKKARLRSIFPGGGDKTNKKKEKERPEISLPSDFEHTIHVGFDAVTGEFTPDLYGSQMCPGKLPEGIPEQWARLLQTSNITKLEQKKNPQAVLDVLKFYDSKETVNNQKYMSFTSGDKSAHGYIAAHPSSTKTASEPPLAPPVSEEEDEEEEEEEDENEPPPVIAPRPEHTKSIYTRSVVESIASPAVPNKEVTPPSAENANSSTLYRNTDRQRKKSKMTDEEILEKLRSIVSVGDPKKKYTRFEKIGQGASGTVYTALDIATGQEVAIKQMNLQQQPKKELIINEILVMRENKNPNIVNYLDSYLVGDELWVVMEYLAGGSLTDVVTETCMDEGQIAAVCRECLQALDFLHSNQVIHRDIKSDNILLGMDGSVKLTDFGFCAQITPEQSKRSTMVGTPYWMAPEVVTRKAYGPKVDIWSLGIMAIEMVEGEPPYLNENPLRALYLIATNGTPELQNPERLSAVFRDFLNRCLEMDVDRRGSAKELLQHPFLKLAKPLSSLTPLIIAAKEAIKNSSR
UniProt Q00535, sequence (whole entry, looked up): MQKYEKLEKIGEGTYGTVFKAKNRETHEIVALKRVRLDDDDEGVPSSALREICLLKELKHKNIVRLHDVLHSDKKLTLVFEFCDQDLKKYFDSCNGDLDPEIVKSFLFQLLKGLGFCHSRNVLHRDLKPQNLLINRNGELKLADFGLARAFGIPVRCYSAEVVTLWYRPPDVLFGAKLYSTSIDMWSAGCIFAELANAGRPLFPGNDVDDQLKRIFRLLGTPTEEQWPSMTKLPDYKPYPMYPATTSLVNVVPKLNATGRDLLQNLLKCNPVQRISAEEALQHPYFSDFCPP
UniProt Q13882, sequence (whole entry, looked up): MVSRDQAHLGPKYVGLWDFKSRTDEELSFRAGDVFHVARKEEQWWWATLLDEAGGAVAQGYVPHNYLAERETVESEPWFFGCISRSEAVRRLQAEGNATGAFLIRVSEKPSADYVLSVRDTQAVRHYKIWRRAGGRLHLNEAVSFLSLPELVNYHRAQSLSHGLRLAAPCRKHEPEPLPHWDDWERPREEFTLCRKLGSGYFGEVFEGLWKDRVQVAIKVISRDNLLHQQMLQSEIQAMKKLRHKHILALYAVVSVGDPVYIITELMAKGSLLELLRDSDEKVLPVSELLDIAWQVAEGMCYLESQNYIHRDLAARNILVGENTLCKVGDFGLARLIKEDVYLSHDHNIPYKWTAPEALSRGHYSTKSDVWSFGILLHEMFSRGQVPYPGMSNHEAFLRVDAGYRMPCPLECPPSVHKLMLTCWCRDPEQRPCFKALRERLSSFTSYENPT
UniProt P06241, sequence (whole entry, looked up): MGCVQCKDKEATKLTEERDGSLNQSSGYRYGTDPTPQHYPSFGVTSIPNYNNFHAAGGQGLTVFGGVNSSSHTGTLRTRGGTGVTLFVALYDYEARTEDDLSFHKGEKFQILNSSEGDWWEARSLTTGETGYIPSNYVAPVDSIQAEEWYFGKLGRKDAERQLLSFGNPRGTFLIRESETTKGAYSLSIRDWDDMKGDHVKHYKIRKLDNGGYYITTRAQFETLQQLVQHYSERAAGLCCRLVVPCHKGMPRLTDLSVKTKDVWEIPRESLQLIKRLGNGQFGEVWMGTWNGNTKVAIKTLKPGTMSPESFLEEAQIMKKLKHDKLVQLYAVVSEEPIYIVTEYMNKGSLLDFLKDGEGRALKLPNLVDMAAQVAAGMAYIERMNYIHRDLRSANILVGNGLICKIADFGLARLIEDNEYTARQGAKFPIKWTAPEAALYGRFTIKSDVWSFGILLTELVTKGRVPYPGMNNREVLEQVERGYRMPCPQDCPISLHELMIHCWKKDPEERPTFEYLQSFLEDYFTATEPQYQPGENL

Set 1
SMILES: CCN1/C(=C/C=C2\CCCC(/C=C/C3=[N+](CC)c4ccccc4C3(C)C)=C2NCCCCCCCCN2CCC(Nc3nc4ccccc4n3Cc3ccc(F)cc3)CC2)C(C)(C)c2ccccc21
Cell line: U-87 MG
Tested at: concentration not given
Relative to: DMSO
| measured | log2 fold change |
| --- | --- |
| ZNF460 mRNA | 2.48 |
| PLCXD1 mRNA | -1.32 |
| CADPS mRNA | -0.892 |
| TAF1D mRNA | 1.1 |
| SWI5 mRNA | 0.818 |
| CCNJ mRNA | 1.05 |
| SNX11 mRNA | 0.808 |
| TMEM39A mRNA | 0.961 |
| SP6 mRNA | -1.03 |
| TBCEL mRNA | 0.937 |
| IL1B mRNA | 3.22 |

Set 2
SMILES: CC(C)(C)c1ccc(Oc2ccc3c(c2)OC(O)(C(=O)O)C(=O)N3Cc2ccccc2)cc1 (centres unmarked)
| organism | assay | system | setting | how to read | inhibition |
| --- | --- | --- | --- | --- | --- |
| Eclipta prostrata | fresh weight |  | 150 g ai/ha, post-emergence treatment |  | 68.9% and 64.9% and 69.2% |
| Arabidopsis thaliana | root length | Col-0, seedlings | 6.25 µg/mL |  | 22.6% |
| Arabidopsis thaliana | hypocotyl length | Col-0, seedlings | 6.25 µg/mL |  | 15.4% |
| Arabidopsis thaliana | root length | Col-0, seedlings | 12.5 µg/mL | relative to: water control | 38.5% |
| Echinochloa crus-galli | fresh weight |  | 150 g ai/ha, post-emergence treatment |  | 49.1% and 49.5% and 49.8% |
| Arabidopsis thaliana | root length | Col-0 | 12.5 µg/mL, 7 days, seed germination, dark |  | 38.5% |
| Arabidopsis thaliana | root length | Col-0, seeds | 100 µg/mL, 7 d, dark |  | 89.7% |
| Triticum aestivum | fresh weight |  | soil surface spray, 150 g ai/ha, 21 days, pre-emergence crop safety |  | 16.9% and 15.4% and 14.8% |
| Arabidopsis thaliana | root length | Col-0, seedlings | 100 µg/mL | relative to: water control | 89.7% |
| Arabidopsis thaliana | hypocotyl length | Col-0, seedlings | 50 µg/mL |  | 32.3% |
| Arabidopsis thaliana | root length | Col-0, seedlings | 3.125 µg/mL | relative to: water control | 7.74% |
| Arabidopsis thaliana | hypocotyl length | Col-0 | 50.0 µg/mL, 7 days, seed germination, dark |  | 32.3% |
| Arabidopsis thaliana | root length | Col-0 | 25.0 µg/mL, 7 days, seed germination, dark |  | 51.2% |
| Arabidopsis thaliana | root length | Col-0 | 3.13 µg/mL, 7 days, seed germination, dark |  | 7.7% |

Set 3
SMILES: CN(C1COC1)C(C)(C)/C=C(\C#N)C(=O)N1CCC[C@H]1Cn1nc(-c2ccc(Oc3ccccc3)cc2F)c2c(N)ncnc21
| target | effect on | tested at | notes | inhibition [%] |
| --- | --- | --- | --- | --- |
| ALK (Homo sapiens, UniProt Q9UM73) | kinase activity | 0.1 µM |  | -3 |
| MAPK11 (Homo sapiens, UniProt Q15759) | kinase activity | 0.1 µM |  | 2 |
| EPHA1 (Homo sapiens, UniProt P21709) | kinase activity | 0.1 µM |  | 4 |
| PTK6 (Homo sapiens, UniProt Q13882) | kinase activity | 1 µM |  | 70 |
| FLT3 (Homo sapiens, UniProt P36888) | kinase activity | 0.1 µM |  | 12 |
| PRKCQ (Homo sapiens, UniProt Q04759) | kinase activity | 1 µM |  | 5 |
| MUSK (Homo sapiens, UniProt O15146) | kinase activity | 1 µM |  | 2 |
| PLK2 (Homo sapiens, UniProt Q9NYY3) | kinase activity | 1 µM |  | 3 |
| ROS1 (Homo sapiens, UniProt P08922) | kinase activity | 1 µM |  | 3 |
| CDC42BPB (Homo sapiens, UniProt Q9Y5S2) | kinase activity | 1 µM |  | -4 |
| FYN (Homo sapiens, UniProt P06241) | kinase activity | 1 µM |  | 64 |
| PRKAA2 (Homo sapiens, UniProt P54646) | kinase activity | 0.1 µM |  | -7 |
| NDRG1 |  | 1 µM | mean | -8 |
| PAK3 (Homo sapiens, UniProt O75914) | kinase activity | 0.1 µM |  | 3 |
| CDK5 (Homo sapiens, UniProt Q00535) | kinase activity | 1 µM |  | -4 |

Set 4
SMILES: Cc1ccc(O)c(C)c1-c1cnc2[nH]c(-c3cnc(N4CCC5(CC4)CC(N4CCN(c6ccc(NC7CCC(=O)NC7=O)cc6F)CC4)CO5)nc3)cc2c1C#N (centres unmarked)
Measured: CDK1 phospho-Thr14
| cell line | tested at | inhibition [%] |
| --- | --- | --- |
| MDA-MB-157 | 37.04 nM | 15.2 |
| MDA-MB-157 | 0.15 nM | -31.8 |
| HCC1599 | 0.15 nM | -9.4 |

Set 5
Cell line: Gaucher fibroblasts L444P/L444P
Technique: 4-MUG hydrolysis, cell lysate
Tested at: 0.1 µM
Time: 72 h
Relative to: vehicle
| Structure (SMILES) | GCase activity |
| --- | --- |
| Ic1ccc(Nc2nc(NCCc3c[nH]c4ccccc34)nc(N3CCOCC3)n2)cc1 | 193% |
| Ic1ccc(Nc2nc(NCCN3CCOCC3)nc(N3CCNCC3)n2)cc1 | 99% |
| Ic1ccc(Nc2nc(NCCN3CCOCC3)nc(N3CC4CC3CO4)n2)cc1 (centres unmarked) | 100% |
| CCOc1ccc2nc(Sc3nc(Nc4ccc(I)cc4)nc(N4CCOCC4)n3)sc2c1 | 101% |

Set 6
Cell line: MDA-MB-231
Effect on: cell viability
Technique: CellCounting-Lite
Tested at: 74.07 nM
Temperature: 37 °C
Reading: higher = more viable cells
| SMILES | luminescence signal |
| --- | --- |
| CCn1cnc2c(NCc3nc4cc(Cl)c(Cl)cc4[nH]3)nc(N3CCN(C(=O)c4cccnc4)CC3)nc21 | 26200 a.u. and 24900 a.u. and 27400 a.u. |
| CC(=O)N1CCN(c2nc(NCc3nc4cc(Cl)c(Cl)cc4[nH]3)c3ncn(-c4cnn(C)c4)c3n2)CC1 | 500000 a.u. and 448000 a.u. and 477000 a.u. |
| CCn1cnc2c(NCc3nc4ccc(F)c(F)c4[nH]3)nc(N3CCn4ncnc4C3)nc21 | 314000 a.u. and 300000 a.u. and 275000 a.u. |
| CCn1cnc2c(NCc3nc4cc(Cl)c(Cl)cc4[nH]3)nc(N3CCN(S(C)(=O)=O)CC3)nc21 | 167000 a.u. and 146000 a.u. and 138000 a.u. |
| CC(=O)N1CCN(c2nc(NCc3nc4cc(Cl)c(Cl)cc4[nH]3)c3ncn(C(C)C)c3n2)CC1 | 499000 a.u. and 515000 a.u. and 508000 a.u. |
| CCn1cnc2c(NCc3nc4cc(Cl)c(Cl)cc4[nH]3)nc(N3CCN(C(=O)[C@H](C)NC(C)=O)CC3)nc21 | 309000 a.u. and 233000 a.u. and 291000 a.u. |
| CCCCOc1nc(NCc2nc3cc(Cl)c(Cl)cc3[nH]2)c2ncn(CC)c2n1 | 421000 a.u. and 562000 a.u. and 627000 a.u. |
| CCn1cnc2c(NCc3nc4cc(F)c(F)cc4[nH]3)nc(N3CCn4ncnc4C3)nc21 | 398000 a.u. and 392000 a.u. and 430000 a.u. |
| CCn1cnc2c(NCc3nc4cc(Cl)c(Cl)cc4[nH]3)nc(N3CCN(C(C)=O)CC3)nc21 | 65800 a.u. and 73900 a.u. and 66300 a.u. |
| CCn1cnc2c(NCc3nc4cc(Cl)c(Cl)cc4[nH]3)nc(N3CCN(Cc4ccncc4)CC3)nc21 | 199000 a.u. and 157000 a.u. and 189000 a.u. |

Set 7
Structure (SMILES): C[C@@H]1CN(c2ccc(-c3cc(C(=O)NCCOCCOCCOCCOCCNC(=O)/C=C/c4[nH]cc(C(=O)N[C@@H](CC(N)=O)c5ccc(F)c(Cl)c5)c4-c4ccc(Cl)cc4F)ccc3F)cc2NC(=O)c2c[nH]c(=O)cc2C(F)(F)F)C[C@H](C)N1C
Effect on: thermal unfolding
Technique: differential scanning fluorimetry
Tested at: 5.5 µM
Reading: higher = more unfolded
DCAF1: DDB1- and CUL4-associated factor 1 (DCAF1, Homo sapiens, UniProt Q9Y4B6)
UniProt Q9Y4B6, sequence (whole entry, looked up): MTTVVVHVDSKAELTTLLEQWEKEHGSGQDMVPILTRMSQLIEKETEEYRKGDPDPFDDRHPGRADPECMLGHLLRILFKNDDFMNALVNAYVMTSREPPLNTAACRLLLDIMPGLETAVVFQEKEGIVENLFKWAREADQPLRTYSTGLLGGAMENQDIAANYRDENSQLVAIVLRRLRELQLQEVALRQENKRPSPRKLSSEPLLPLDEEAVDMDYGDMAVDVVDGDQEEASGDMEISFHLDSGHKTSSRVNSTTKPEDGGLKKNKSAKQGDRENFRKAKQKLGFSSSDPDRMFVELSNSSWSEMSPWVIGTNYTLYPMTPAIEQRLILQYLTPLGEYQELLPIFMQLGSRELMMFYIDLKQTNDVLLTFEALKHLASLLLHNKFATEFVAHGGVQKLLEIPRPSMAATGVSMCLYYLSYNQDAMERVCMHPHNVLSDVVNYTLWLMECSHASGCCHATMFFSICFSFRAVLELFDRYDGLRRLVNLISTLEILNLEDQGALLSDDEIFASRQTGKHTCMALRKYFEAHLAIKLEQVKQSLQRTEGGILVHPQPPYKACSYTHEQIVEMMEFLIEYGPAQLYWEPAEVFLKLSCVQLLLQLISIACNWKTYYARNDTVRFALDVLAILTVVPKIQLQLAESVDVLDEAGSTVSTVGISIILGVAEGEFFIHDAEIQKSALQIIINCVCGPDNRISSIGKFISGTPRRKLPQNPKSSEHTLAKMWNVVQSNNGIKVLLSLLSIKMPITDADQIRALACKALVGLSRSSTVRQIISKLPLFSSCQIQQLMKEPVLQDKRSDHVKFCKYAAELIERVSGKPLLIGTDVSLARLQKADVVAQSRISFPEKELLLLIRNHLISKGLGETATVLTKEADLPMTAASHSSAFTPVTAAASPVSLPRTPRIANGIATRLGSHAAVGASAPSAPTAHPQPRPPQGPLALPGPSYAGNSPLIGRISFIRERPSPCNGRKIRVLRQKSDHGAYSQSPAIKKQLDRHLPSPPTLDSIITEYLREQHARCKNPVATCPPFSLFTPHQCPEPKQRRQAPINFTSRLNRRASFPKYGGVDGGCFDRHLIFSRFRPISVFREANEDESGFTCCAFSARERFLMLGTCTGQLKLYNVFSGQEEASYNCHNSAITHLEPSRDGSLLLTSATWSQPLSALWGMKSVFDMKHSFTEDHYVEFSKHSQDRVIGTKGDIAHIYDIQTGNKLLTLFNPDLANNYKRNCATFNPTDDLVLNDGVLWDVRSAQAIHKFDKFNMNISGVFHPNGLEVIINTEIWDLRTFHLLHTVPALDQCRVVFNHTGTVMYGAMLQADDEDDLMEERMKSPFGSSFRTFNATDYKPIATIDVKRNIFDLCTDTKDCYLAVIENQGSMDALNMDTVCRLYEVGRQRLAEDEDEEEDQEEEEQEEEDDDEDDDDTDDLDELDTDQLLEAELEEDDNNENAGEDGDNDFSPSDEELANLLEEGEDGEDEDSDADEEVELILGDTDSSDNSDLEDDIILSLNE
WDR5: WD repeat-containing protein 5 (WDR5, Homo sapiens, UniProt P61964)
| target | temperature | SYPRO Orange fluorescence [a.u.] |
| --- | --- | --- |
| DCAF1 | 73.01 °C | 52200 |
| DCAF1 | 41 °C | 11900 |
| WDR5 | 45.2 °C | 15400 |
| WDR5 | 39.6 °C | 13900 |
| WDR5 | 80.41 °C | 41600 |
| WDR5 | 42.8 °C | 15000 |
| DCAF1 | 81.41 °C | 43600 |
| DCAF1 | 72.61 °C | 52600 |

Repeated from above (set 3):
| target | effect on | tested at | notes | inhibition [%] |
| --- | --- | --- | --- | --- |
| EPHA1 (Homo sapiens, UniProt P21709) | kinase activity | 0.1 µM |  | 4 |
| FYN (Homo sapiens, UniProt P06241) | kinase activity | 1 µM |  | 64 |
| CDC42BPB (Homo sapiens, UniProt Q9Y5S2) | kinase activity | 1 µM |  | -4 |
| PTK6 (Homo sapiens, UniProt Q13882) | kinase activity | 1 µM |  | 70 |
| ALK (Homo sapiens, UniProt Q9UM73) | kinase activity | 0.1 µM |  | -3 |
| ROS1 (Homo sapiens, UniProt P08922) | kinase activity | 1 µM |  | 3 |
| PAK3 (Homo sapiens, UniProt O75914) | kinase activity | 0.1 µM |  | 3 |
| PRKAA2 (Homo sapiens, UniProt P54646) | kinase activity | 0.1 µM |  | -7 |
| MUSK (Homo sapiens, UniProt O15146) | kinase activity | 1 µM |  | 2 |
